Experimental data pooled from the literature.
Lines come from different studies, so protocols differ. “And” joins repeats or separate records; there may be more than shown. Numbers after ± are the reported error.
Nuclear receptor subfamily 2 group C member 2 ligand-binding domain: Nuclear receptor subfamily 2 group C member 2, ligand-binding domain (Homo sapiens, UniProt P49116)
HTR1A: 5-hydroxytryptamine receptor 1A (HTR1A, Homo sapiens, UniProt P08908)
Pancreatic alpha-amylase: Pancreatic alpha-amylase (Homo sapiens, UniProt P04746)

CCCNC(C)C(=O)Nc1ccccc1C (stereo not drawn)
koff (Nuclear receptor subfamily 2 group C member 2 ligand-binding domain; SPR imaging; 600 nM): 1.15e-05 s⁻¹

O=C(NC1CCC1)c1ccc2nc(-c3cccc(NS(=O)(=O)NCCN4CCCCC4)c3)cn2c1
remaining activity (AAK1 (Homo sapiens, UniProt Q2M2I8); enzyme activity; 10 µM): 87%

O=C(COP(=O)(O)O)[C@@H](O)[C@H](O)[C@H](O)COP(=O)(O)O
thermal stability ratio (DNA-directed RNA polymerase II subunit RPB1 (Homo sapiens, UniProt P24928); thermal proteome profiling, refers to: POLR2A; HepG2 cell lysate; concentration not given, 57 over 37 °C; baseline: compound over control): 0.5 and 0.438 and 0.7

C[C@]12CC[C@@H]3c4ccc(O)cc4CC[C@H]3[C@@H]1C[C@@H](O)[C@@H]2O
koff (Nuclear receptor subfamily 2 group C member 2 ligand-binding domain; SPR imaging; 600 nM): 3.32e-07 s⁻¹

C=CC(=O)N1CCC(COCC(=O)N2CCN(c3nc(-c4cnc(N)nc4C(F)F)nc(N4CCOC[C@@H]4C)n3)CC2)CC1
remaining binding (ACVR2B (Homo sapiens, UniProt Q13705); KINOMEscan; 1 µM; baseline: DMSO control): 88%

CC[C@@H]1[C@H](F)C(=O)N[C@@H]1COc1nccc2cc(C(N)=O)c(OC)cc12
inhibition (MARK2 (Homo sapiens, UniProt Q7KZI7); ATP-site probe binding, ActivX profiling; THP-1 cell lysate; 0.04 mM, Lys1 site): 6.9%

Nc1ncnc2c1ncn2[C@@H]1O[C@H](COP(=O)(O)CP(=O)(O)OP(=O)(O)O)[C@@H](O)[C@H]1O
specific binding (P2X purinoceptor 1 (P2RX1, Homo sapiens, UniProt P51575, K140A); saturation binding; HEK293; 79 nM): 7490 CCPM and 2660 CCPM and 3690 CCPM

CC(=O)c1ccc2cc(S(=O)(=O)Nc3ccc(Br)cc3)ccc2c1
log IC50 (STAT3 (Homo sapiens, UniProt P40763); tyrosine phosphorylation, inhibitor, ELISA, refers to: phospho-Tyr705): 0.479

O=C(O)c1ccc(Nc2ncc3c(n2)-c2ccc(Cl)cc2C(c2c(F)cccc2F)=NC3)cc1
remaining activity (Fes(h); kinase activity; 1 µM): 133%

CC[C@@]1(O)C(=O)OCc2c1cc1n(c2=O)Cc2cc3c(CN(C)C)c(O)ccc3nc2-1
koff (Nuclear receptor subfamily 2 group C member 2 ligand-binding domain; SPR imaging; 600 nM): 4.12e-05 s⁻¹

COc1cc(F)ccc1-c1ncnc(Nc2cccc(C[S@](C)(=N)=O)c2)n1
remaining activity (EPHA4 (Homo sapiens, UniProt P54764); kinase activity; 10 µM, together with: 10 µM ATP): 95%

CCCCC[C@H](O)/C=C/[C@H]1[C@H](O)CC(=O)[C@@H]1C/C=C\CCCC(=O)O
Emax (PTGER1 (Homo sapiens, UniProt P34995, E134A); IP1 accumulation, agonist; AD293; 1 h, EP1 E134A mutant): 57.9 ± 4.71%

Oc1ccccc1-c1n[nH]cc1-c1ccnc2ccccc12
log2 fold change (Serine/threonine-protein kinase GIN4 (GIN4, Candida albicans, UniProt Q59W62); kinase binding, MIB/MS competition; Candida albicans lysate; 1 µM; baseline: DMSO, negative = stronger binding): 0.13

CC[C@H](C)[C@@H]1NC(=O)[C@H](C)NC(=O)[C@H]([C@@H](C)CC)NC(=O)[C@H](CCC(N)=O)NC(=O)[C@H](C)NC(=O)[C@H](CCCNC(=N)N)NC(=O)[C@H](C(C)C)NC(=O)[C@H](CC(C)C)NC(=O)[C@H](CCC(=O)O)NC(=O)[C@H](CCCNC(=N)N)NC(=O)CNC(=O)[C@@H](NC(=O)[C@H](CC(C)C)NC(=O)[C@H](CCCCN)NC(=O)[C@@H](NC(=O)[C@@H](NC(=O)[C@H](CCC(=O)O)NC(=O)[C@H](CCC(=O)O)NC(=O)[C@H](CCSC)NC(=O)[C@H](Cc2c[nH]c3ccccc23)NC(=O)[C@H](CO)NC(=O)[C@@H](N)CC(=O)O)C(C)C)[C@@H](C)CC)CSSC[C@@H]2NC(=O)[C@@H](NC(=O)[C@H](CCCCN)NC(=O)[C@H](CC(N)=O)NC(=O)[C@H](C)NC(=O)[C@H](CC(C)C)NC(=O)[C@H](C)NC(=O)[C@H](CO)NC(=O)[C@H](Cc3ccc(O)cc3)NC(=O)[C@H](CC(C)C)NC(=O)[C@H](CCC(N)=O)NC(=O)c3ccc(-c4c5ccc(=[N+](C)C)cc-5oc5cc(N(C)C)ccc45)c(C(=O)[O-])c3)CSSC[C@H](NC(=O)CNC(=O)[C@H](C(C)C)NC(=O)[C@H](Cc3c[nH]cn3)NC2=O)C(=O)N[C@@H]([C@@H](C)O)C(=O)N[C@@H](CCCCN)C(=O)N[C@@H](CCCNC(=N)N)C(=O)N[C@@H](CO)C(=O)N[C@@H](CC(C)C)C(=O)N[C@@H](C)C(=O)N[C@@H](CCCNC(=N)N)C(=O)N[C@@H](Cc2ccccc2)C(=O)N[C@H](C(=O)O)CSSC[C@@H](C(=O)NCC(=O)N[C@@H](CCSC)C(=O)N[C@@H](CO)C(=O)N[C@H](C(=O)N[C@@H](Cc2c[nH]c3ccccc23)C(=O)N[C@@H](CO)C(=O)O)[C@@H](C)O)NC1=O
fast dissociation fraction (Relaxin receptor 1 (RXFP1, Homo sapiens, UniProt Q9HBX9); binding, NanoBRET; concentration not given, together with: relaxin 10 nM): 22.2%

CC[S+]([O-])c1nc(-c2ccccc2)cc(C(F)(F)F)n1 (stereo not drawn)
cells with nuclear reporter (Exportin-1 (XPO1, Homo sapiens, UniProt O14980); nuclear export, high content imaging; HeLa Kyoto reporter; 1.58 µM, 2 h): 1.27% and 3.63% and 2.47%

C[C@@H]1Cc2ccccc2N1C(=O)NCCCCN(C)[C@@H]1Cc2cccc3[nH]c(=O)n(c23)C1
Hill coefficient (HTR1A; binding; together with: [3H]8-OH-DPAT): -0.51 ± 0.01

Nc1nc2c(ncn2[C@@H]2O[C@H](COP(=O)(O)O)[C@@H](O)[C@H]2O)c(=O)[nH]1
reaction rate (GUK1 (Homo sapiens, UniProt Q16774, R148A); enzyme activity, NADH-coupled; 31.25 µM): 2.44 s⁻¹ and 0.475 s⁻¹ and 1.89 s⁻¹

Nc1cc(F)ccc1NC(=O)/C=C/c1cnn(C/C=C/c2ccccc2)c1
viability (OCI-Ly1; 1 µM, 120 h): 113%

N#Cc1ccn2c(-c3ccncc3)c(-c3ccc(F)cc3)nc2c1
log2 fold change (Serine/threonine-protein kinase CBK1 (CBK1, Candida albicans, UniProt Q5AP53); kinase binding, competitor, MIB/MS competition, refers to: CBK1; Candida albicans cell lysate; 100 nM; baseline: DMSO): -0.0437

NCCCC(=O)O
normalised MST signal (SLC6A6 (Homo sapiens, UniProt P31641, G62A); binding, microscale thermophoresis; 244 nM, room temperature, together with: 50 nM labelled protein; higher = more binding): -0.0805

CO[C@H]1O[C@H](COS(=O)(=O)O)[C@@H](O[C@@H]2O[C@@H](C(=O)O)[C@@H](O[C@H]3O[C@H](COS(=O)(=O)O)[C@@H](O[C@@H]4O[C@H](C(=O)O)[C@@H](O[C@H]5O[C@H](COS(=O)(=O)O)[C@@H](O)[C@H](O)[C@H]5NS(=O)(=O)O)[C@H](O)[C@H]4O)[C@H](OS(=O)(=O)O)[C@H]3NS(=O)(=O)O)[C@H](O)[C@H]2OS(=O)(=O)O)[C@H](O)[C@H]1NS(=O)(=O)O
entropic contribution TΔS (Beta-2-glycoprotein 1, domain V (APOH, Homo sapiens, UniProt P02749, V266L); isothermal titration calorimetry; 298 K, together with: 50 mM NaCl): -3010 cal/mol

CC(C)C[C@@H]1NC(=O)CNC(=O)[C@H](CC(C)C)NC(=O)[C@@H]2CCCN2C(=O)[C@H](CC(=O)O)NC(=O)[C@H](Cc2ccc(O)cc2)NC(=O)CNC(=O)[C@@H](Cc2ccc(O)cc2)NC(=O)CSC[C@@H](C(N)=O)NC(=O)[C@H](C)NC(=O)[C@H](Cc2ccccc2)NC(=O)[C@H](Cc2ccc(O)cc2)NC(=O)[C@H](CCCCN)NC1=O
ΔH (VPS35/VPS29 (Homo sapiens, UniProt Q96QK1+Q9UBQ0); binding, isothermal titration calorimetry; 25 °C): -11.6 ± 1.3 kcal/mol

CC1(C)CC2(C)OC(=O)NC2(C)c2ccccc21 (stereo not drawn)
log fold enrichment (S-phase kinase-associated protein 1 (SKP1, Homo sapiens, UniProt P63208); binding, affinity selection mass spectrometry; baseline: other proteins in batch): -0.023

CC(C)C[C@@H]1NC(=O)[C@H](C(C)C)NC(=O)CNC(=O)[C@H](CC(N)=O)NC(=O)[C@@H]2CCCN2C(=O)[C@H](Cc2ccc(O)cc2)NC(=O)[C@H](CCCNC(=N)N)NC(=O)[C@H](Cc2ccccc2)NC(=O)[C@@H](NC(=O)[C@H](CCCCN)NC(=O)[C@@H]2CCCN2C(=O)[C@H](C)NC(=O)[C@H](C)NC(=O)[C@@H](N)Cc2ccc(O)cc2)CSSC[C@@H](C(=O)N[C@H](C(N)=O)[C@@H](C)O)NC(=O)[C@H](C)NC1=O
-ΔH (Alpha-2-HS-glycoprotein, asialo (AHSG, Bos taurus, UniProt P12763); binding, isothermal titration calorimetry; pH 7.0, 25 °C, together with: asialofetuin): 1.78 kcal/mol

O=C1OC(c2ccccc2)=N/C1=C\c1ccccc1O
Km (Pancreatic alpha-amylase; inhibitor, Lineweaver-Burk; 300 ppm, together with: starch substrate): 973 µM

COC(=O)c1ccccc1SC1=NS(=O)(=O)c2ccccc21
Km (PKLR (Homo sapiens, UniProt P30613); enzyme activity, activator, ADP and PEP titration; 0.5 mM, apparent Km, Vmax, Hill coefficient, together with: PEP or ADP substrate): no effect

Cc1nc(CSc2nc(SCc3ccc(C(C)C)cc3)nc(=O)[nH]2)cs1
relaxed DNA (TOP2A (Homo sapiens, UniProt P11388); DNA relaxation; 125 µM, replicate 2): 25.3%

CCCC[C@H]1CN(c2cccc(OC(F)(F)F)c2)C(=O)CN1Cc1cncn1Cc1ccc(Cl)cc1
IC50 (Cryptococcus neoformans farnesyltransferase; enzyme activity, inhibitor, fluorescence; together with: 1 µM FPP, 0.5 µM dansylated peptide): 260 ± 130 nM

COc1ccccc1N1CCN(CCCCN2CCc3ccccc3C2=O)CC1
inhibition (HTR4 (Homo sapiens, UniProt Q13639); radioligand binding; concentration not given): 9.7%

CC(Oc1ccccc1)C(=O)NCc1ccccn1 (stereo not drawn)
fold enrichment (DCAF1 (Homo sapiens, UniProt Q9Y4B6); binding, affinity selection mass spectrometry; baseline: other proteins in batch): 0.711

O=C1OC(c2ccccc2)=N/C1=C\c1ccccc1
Km (Pancreatic alpha-amylase; inhibitor, Lineweaver-Burk; 100 ppm, together with: starch substrate): 887 µM

Nc1nc2c(ncn2[C@@H]2O[C@H](COP(=O)(O)OP(=O)(O)O)[C@@H](O)[C@H]2O)c(=O)[nH]1
ΔH (GUK1 (Homo sapiens, UniProt Q16774, S13A); binding, ITC): -6.95 ± 0.25 kcal/mol

COc1cc(-c2cc(C(C)=O)n3ccccc23)c(OC)cc1Cn1ccnc1
ΔTm (Bromodomain testis-specific protein, BD2 (BRDT, Homo sapiens, UniProt Q58F21)): 2.9 °C

COc1ccc2c(c1)CN(CCCN1CCN(c3ccccc3OC)CC1)C2=O
inhibition (HTR1A; radioligand binding; concentration not given, together with: [3H]8-OH-DPAT): 98.3%

C[C@H](N)C(=O)N[C@@H](CCCNC(=N)N(C)C)C(=O)N[C@H](C(=O)N[C@@H](CCCCN)C(=O)N[C@@H](CCC(N)=O)C(=O)N[C@H](C(=O)N[C@@H](C)C(=O)N[C@@H](CCCNC(=N)N)C(=O)N[C@@H](CCCCN)C(=O)N[C@@H](CO)C(=O)O)[C@@H](C)O)[C@@H](C)O
binding entropy (Transcriptional regulator ATRX (ATRX, Homo sapiens, UniProt P46100, F284Y/K251R); isothermal titration calorimetry; concentration not given, pH 7.5, 25.0 °C): 7.3 cal/mol/K

Nc1ncnc2c1ncn2[C@@H]1O[C@H](COP(=O)(O)OP(=O)(O)O)[C@@H](O)[C@H]1O
concentration for complete inhibition (ATP-sensitive inward rectifier potassium channel 1 (Rattus norvegicus, UniProt P35560); channel activity, inhibitor, inside-out patch clamp; pH 7.4, Mg2+-free, no second inhibitory nucleotide): 1 to 1.2 mM

For quick reference, copied from above:
C[C@@H]1Cc2ccccc2N1C(=O)NCCCCN(C)[C@@H]1Cc2cccc3[nH]c(=O)n(c23)C1
Hill coefficient (HTR1A; binding; together with: [3H]8-OH-DPAT): -0.51 ± 0.01

Nc1nc2c(ncn2[C@@H]2O[C@H](COP(=O)(O)O)[C@@H](O)[C@H]2O)c(=O)[nH]1
reaction rate (GUK1 (Homo sapiens, UniProt Q16774, R148A); enzyme activity, NADH-coupled; 31.25 µM): 2.44 s⁻¹ and 0.475 s⁻¹ and 1.89 s⁻¹

Nc1cc(F)ccc1NC(=O)/C=C/c1cnn(C/C=C/c2ccccc2)c1
viability (OCI-Ly1; 1 µM, 120 h): 113%

N#Cc1ccn2c(-c3ccncc3)c(-c3ccc(F)cc3)nc2c1
log2 fold change (Serine/threonine-protein kinase CBK1 (CBK1, Candida albicans, UniProt Q5AP53); kinase binding, competitor, MIB/MS competition, refers to: CBK1; Candida albicans cell lysate; 100 nM; baseline: DMSO): -0.0437
